Assay results of several laboratories.
“And” joins repeats or separate records; there may be more than shown. ± marks the error that the study gave. Converted amounts (≈) assume the structure as drawn.

Compound	target or system	test	test system	conditions	scale	quantity	value
Cc1cc(OC(C)C)ccc1C(=O)C(C)(C)NC(=O)c1sccc1C	Botrytis cinerea	germ tube elongation	B05.10	0.001 µg/mL	–	inhibition	8 ± 13.9%
Cc1ccc(-c2nc3ccccc3s2)cc1NC(=O)c1cnccc1C(F)(F)F	Leishmania mexicana	amastigote growth	J774.A1 macrophages	–	–	EC50	> 10 µM
C#CCOC(=O)ON=C1C=CC(=C(C#N)c2ccccc2)C=C1	Candida parapsilosis	broth dilution	ATCC 22099	48 h, 37 °C	–	MFC	16 µg/mL (≈ 52.6 µM)
CC(C)Oc1ccc(N/N=C/c2ccc(-c3ccc(/C=N/Nc4ccc(OC(C)C)cc4)cc3)cc2)cc1	Candida and Aspergillus	–	–	concentration not given, strain panel	–	antifungal activity	inactive
O=c1c(O)c(-c2ccc(O)cc2)oc2cc(O[C@@H]3O[C@H](CO)[C@@H](O)[C@H](O)[C@H]3O)cc(O)c12	Streptococcus gordonii	–	ATCC 51656	–	–	MBC	200 µg/mL (≈ 446 µM)
CCc1nn(C)c2nc(-c3ccc(C(=O)O)cc3)nc(NCc3ccc(F)cc3)c12	Cryptosporidium parvum	–	HCT-8	EC90, 6 h	baseline: DMSO control	parasite number	118% and 127% and 107% and 136%
CCCCN(Cc1c(-c2ccccc2)nc2ccc(C)cn12)c1cccc(C(F)(F)F)c1	Leishmania infantum	–	macrophages, MHOM/MA(BE)/67/ITMAP263, amastigote	–	–	IC50	2.38 µM and 1.41 µM
Cc1cc(Nc2ccc(S(F)(F)(F)(F)F)cc2)n2nc(C(C)(F)F)nc2n1	Plasmodium falciparum	microscopy	human malaria patients	400 mg, median	–	parasite clearance half-life	5 h
FC(F)(F)c1ccc(-c2c(-c3ccccn3)nc3n2CCC3)cc1	Leishmania infantum	–	macrophages, MHOM/MA(BE)/67/ITMAP263, amastigote	–	–	IC50	1.81 µM and 1.9 µM
CC(C)n1ncc2c(C(=O)NCC3(C)CNC3)cc(C3CC3)nc21	Enterovirus D68	cytopathic effect	RD, US/IL/14-18956	150 nM	–	cell protection	0.422% and 0.703% and 0%
COc1cc(C=O)ccc1OC1=C(Cl)C(=O)c2ccccc2C1=O	Bacillus cereus	–	MTCC 430	10 µg/mL	–	zone of inhibition	19 mm
Fc1ccc(Nc2c(-c3cccnn3)nc3ccccn23)cc1	Leishmania infantum	–	MHOM/MA(BE)/67/ITMAP263	120 h	baseline: CC50 macrophages over EC50 amastigotes	selectivity index	2
O=C1/C(=C/c2ccc3ccccc3c2O)NC(=S)N1c1ccccc1	Bacillus cereus	–	ATCC 14579	concentration not given	–	inhibition zone diameter	25 ± 0.5 mm
COc1ccc(S(=O)(=O)Nc2c(C(=O)Nc3c(C(=O)O)cc(OC)c(OC)c3OC)cc(OC)c(OC)c2OC)cc1	Leishmania infantum	intracellular amastigote growth	U-937 macrophages and HeLa	–	baseline: IC50 HeLa over IC50 amastigotes	selectivity index	3.5
CC(=O)[C@@]1(O)CC[C@H]2[C@@H]3C[C@H](C)C4=CC(=O)C=C[C@]4(C)[C@@]3(F)[C@@H](O)C[C@@]21C	THP-1	pyroptotic LDH release	–	2 µM, 40 min, with: LPS then nigericin	–	inhibition	-1.79%
COC(=O)[C@H](Cc1c[nH]c2ccccc12)NCc1cc2ccccc2nc1OC	Pseudomonas aeruginosa	–	–	64 µg/mL, without pentamidine	baseline: control	growth	91%
COc1cc(-c2c(-c3ccccn3)nc3n2CCC3)ccc1C#N	Leishmania infantum	–	macrophages, MHOM/MA(BE)/67/ITMAP263, amastigote	–	–	IC50	27.1 µM and 8 µM
COC[C@H](NC(=O)c1cnc(C)s1)C(=O)N[C@@H](COC)C(=O)N[C@@H](Cc1ccccc1)C(=O)[C@@]1(C)CO1	THP-1	pyroptotic LDH release	–	2 µM, 40 min, with: LPS then nigericin	–	inhibition	-12%
COc1cccnc1-c1nc2ccccn2c1N(C)c1ccc(F)cc1	Leishmania infantum	–	macrophages, MHOM/MA(BE)/67/ITMAP263, amastigote	–	–	IC50	1.6 µM and 1.26 µM
O=C(O)C=Cc1ccc(O)cc1	human immunodeficiency virus 1	viral replication	TZM-bl cells, NL4-3 (CXCR4-tropic)	48 h	–	IC50	> 100 µM
Clc1cccc(-c2c(-c3ccccn3)nc3n2CCC3)c1	Leishmania infantum	–	macrophages, MHOM/MA(BE)/67/ITMAP263, amastigote	–	–	IC50	0.35 µM and 2.16 µM
N=C(N)c1ccc(OCc2cccc(COc3ccc(C(=N)N)cc3)c2)cc1	Escherichia coli	–	ATCC 25922	concentration not given, with: rifampicin	–	MIC in combination	6.25 µg/mL

Excerpt of the above:
Compound	target or system	test	test system	conditions	scale	quantity	value
CC(=O)[C@@]1(O)CC[C@H]2[C@@H]3C[C@H](C)C4=CC(=O)C=C[C@]4(C)[C@@]3(F)[C@@H](O)C[C@@]21C	THP-1	pyroptotic LDH release	–	2 µM, 40 min, with: LPS then nigericin	–	inhibition	-1.79%
COC(=O)[C@H](Cc1c[nH]c2ccccc12)NCc1cc2ccccc2nc1OC	Pseudomonas aeruginosa	–	–	64 µg/mL, without pentamidine	baseline: control	growth	91%
